Assay results pooled from the literature.
Lines come from different studies, so protocols differ. “And” joins repeats or separate records; there may be more than shown. Numbers after ± are the reported error.

CCc1nnc(-c2c(OC)cc(-c3cnc4cc(-c5cnn(C)c5)ccn34)cc2OC)o1  mineral apposition rate (histomorphometry; male C57BL/6J mouse, tibia; oral gavage, 40 mg/kg once daily, 3 wk): 0.924 ± 0.046 µm/day
COc1ccccc1-c1n[nH]c2nc(N[C@H]3CC[C@H](NS(=O)(=O)CC(C)C)CC3)ncc12  relative abundance (bead binding, competition bead pull-down, refers to: LMJF.21.0280; Leishmania donovani extract; 10 µM; relative to: vehicle): 0.98
CO[C@H]1CC=C2CCN3CCC4=C(CC(=O)CC4)[C@]23C1  ethanol intake (Wistar rats, intermittent ethanol access; subcutaneous, 10 mg/kg, 30 min after drinking onset): 1.1 ± 0.1 g/kg
NNC(=O)c1ccccc1  normalised absorbance (hydrazine ligation kinetics, absorbance; concentration not given, 10 s, with: 2-formylphenylboronic acid): 0.377
CC(C)NCCCn1c(Sc2cc3c(cc2I)OCO3)nc2c(N)ncnc21  AKT decrease (Western blot; mouse, MDA-MB-468 xenograft, tumour; 5 mg/kg 3 times weekly): 57%
Cc1ccc(S(=O)(=O)N2CC2C(=O)N(C)C)cc1 (stereo not drawn)  tumour volume (mouse, Lewis lung carcinoma; intraperitoneal, 170 mg/kg, 16 doses, day 15): 1100 mm3
CCCC[C@@H]1NC(=O)[C@H](Cc2ccc(O)cc2)NC(=O)[C@@H]2CCCN2C(=O)[C@H](CC(=O)O)NC(=O)[C@H](C)NC(=O)[C@H](Cc2ccccc2)NC(=O)[C@@H]2CSCCC(=O)N3CN(CN(C3)C(=O)CCSC[C@@H](C(=O)N[C@@H](C)C(N)=O)NC1=O)C(=O)CCSC[C@H](NC(C)=O)C(=O)N[C@@H](CC(C)(C)C)C(=O)N1CCC[C@H]1C(=O)N[C@@H](CCC(=O)O)C(=O)N[C@H](CCCCNC(=O)CCc1cn(CCOCCOCCOCCN(CCOCCOCCOCCC(=O)N[C@H]3CSCCC(=O)N4CN5CN(C4)C(=O)CCSC[C@H](NC(=O)[C@@H](CC(=O)O)NC(=O)[C@H](Cc4cccc6ccccc46)NC(=O)[C@@H]4CCCN4C3=O)C(=O)N[C@@H](CCSC)C(=O)N[C@@H](CCCCNC(=N)N)C(=O)N[C@@H](CC(=O)O)C(=O)N[C@@H](Cc3c[nH]c4ccccc34)C(=O)N[C@@H](CO)C(=O)N[C@@H]([C@@H](C)O)C(=O)N3CCC[C@H]3C(=O)N3C[C@H](O)C[C@H]3C(=O)N[C@@H](Cc3c[nH]c4ccccc34)C(=O)N[C@H](C(N)=O)CSCCC5=O)CCOCCOCCOCCn3cc(CCC(=O)NCCCC[C@H]4NC(=O)[C@H](CCC(=O)O)NC(=O)[C@@H]5CCCN5C(=O)[C@H](CC(C)(C)C)NC(=O)[C@@H](NC(C)=O)CSCCC(=O)N5CN6CN(C5)C(=O)CCSC[C@H](NC(=O)[C@H](Cc5ccc(O)cc5)NC(=O)[C@@H]5CCCN5C4=O)C(=O)N[C@@H](Cc4ccccc4)C(=O)N[C@@H](C)C(=O)N[C@@H](CC(=O)O)C(=O)N4CCC[C@H]4C(=O)N[C@@H](Cc4ccc(O)cc4)C(=O)N[C@@H](CCCC)C(=O)N[C@H](C(=O)N[C@@H](C)C(N)=O)CSCCC6=O)nn3)nn1)C(=O)N1CCC[C@H]1C(=O)N[C@@H](Cc1ccc(O)cc1)C(=O)N2  mRNA level (NanoString, refers to: Clec5a-mRNA; mouse bearing MC38-Nectin-4 tumour, circulating white blood cells; 5 mg/kg, 24 h after dosing, unit not given; relative to: vehicle): 2.54
COc1ccccc1-c1n[nH]c2nc(NC3CCN(C(=O)Cc4ccc(F)cc4F)CC3)ncc12  relative abundance (bead binding, competition bead pull-down, refers to: LINJ.26.1220; Leishmania donovani extract; 10 µM; relative to: vehicle): 0.96
C(=N\Cc1cc(C/N=C/c2ccc[nH]2)cc(-c2cc(C/N=C/c3ccc[nH]3)cc(C/N=C/c3ccc[nH]3)c2)c1)/c1ccc[nH]1  IFN-gamma level (hACE2 mice, bronchoalveolar lavage fluid; dose not given; relative to: control): decreased
O=C(O)c1ccc(-c2nc(-c3ccccc3Cl)c3sccn23)cc1  platelet recovery (C57BL/6 mice, 5-fluorouracil treated; oral, 100 mg/kg daily, day 10): 275% and 330% and 262% and 331% and 241% and 336% and 314% and 260%
C[C@H](NCc1ccc(-c2ccc(C(F)(F)F)cc2)cc1)C(N)=O  step-through latency (passive avoidance retention; APP/PS1 mice; oral, 1 mg/kg, 336 h, 2 weeks treatment): 254 ± 66.5 s
O=C1NC2(CC2)COc2ncc(F)cc2[C@H]2COCCN2c2ccn3ncc1c3n2  neutrophils (Sprague-Dawley rat, male, blood; oral, 5 mg/kg/day, end of treatment, 4-week repeated-dose toxicity; relative to: leukocytes): 19 ± 9%
CC(C)C[C@@H]1NC(=O)[C@@H](Cc2c[nH]c3ccccc23)NC(=O)[C@H](CCCNC(=N)N)NC(=O)[C@@H](CCC(=O)O)NC(=O)[C@H](CCC(N)=O)NC(=O)[C@@H](CCC(=O)O)NC(=O)[C@H](CCCNC(=N)N)NC(=O)[C@@H](Cc2c[nH]c3ccccc23)NC1=O  cytokine level (Luminex, refers to: VEGF; LDLr-/- mice, Western diet, liver; dose not given, 4 weeks): 8.2 ± 3.4 pg/g tissue
[Cu+2].c1cnc2c(c1)c1nccnc1c1cccnc12.c1cnc2c(c1)c1nccnc1c1cccnc12  nicked circular DNA (DNA cleavage; supercoiled pUC19 DNA; 100 µM, 30 min, with: ascorbic acid): 94%
CCN(Cc1ccccc1)C(=O)CCc1nc(CN2CCN(C(=O)Cc3ccc(OC)c(OC)c3)CC2)no1  action potential amplitude (current clamp; DRG neurons, naive rat; 1 µM): 83 ± 8.57 mV
CC(C)C[C@H](NC(=O)[C@@H](N)CCCNC(=N)N)C(=O)N[C@@H](CCCNC(=N)N)C(=O)N[C@@H](Cc1c[nH]c2ccccc12)C(=O)N1CCC[C@H]1C(=O)N[C@@H](CCCNC(=N)N)C(=O)N1CCC[C@H]1C(=O)N[C@@H](CCCNC(=N)N)C(=O)N[C@@H](Cc1c[nH]c2ccccc12)C(=O)N[C@@H](CCCNC(=N)N)C(=O)N[C@@H](CCCCN)C(=O)N1CCC[C@H]1C(=O)N1CCC[C@H]1C(=O)O  ABTS radical scavenging (absorbance at 734 nm; 1 mg/mL, 5 min, room temperature): 0.62 fraction (0-1)
CC(C)CC1NCCc2cc(O)c(O)cc21 (stereo not drawn)  Fe2+ chelation (ferrozine; cell-free; 100 µM, DMSO solvent): 95.93 ± 0.54%
O=S(=O)(N[C@H]1CCO[C@@H](C2c3ccccc3CCc3ccccc32)C1)c1ccc(OC(F)(F)F)cc1  metastasis area (H&E staining; D341-Luc, athymic nude mouse, intraventricular leptomeningeal disease model, spinal column; dose not given; relative to: vehicle): decreased

Some of these lines once more:
CCc1nnc(-c2c(OC)cc(-c3cnc4cc(-c5cnn(C)c5)ccn34)cc2OC)o1  mineral apposition rate (histomorphometry; male C57BL/6J mouse, tibia; oral gavage, 40 mg/kg once daily, 3 wk): 0.924 ± 0.046 µm/day
COc1ccccc1-c1n[nH]c2nc(N[C@H]3CC[C@H](NS(=O)(=O)CC(C)C)CC3)ncc12  relative abundance (bead binding, competition bead pull-down, refers to: LMJF.21.0280; Leishmania donovani extract; 10 µM; relative to: vehicle): 0.98
